# Results gathered from unrelated publications.
# Each numbered part is a random draw from the data of one study; scales do not carry over between parts. Changes are numbered by the printed parent chain.

# Series 1 — technique: aptamer microarray, sandwich; form: DNA with 2'F-ANA; medium: in vitro; concentration: 200 nM; with: Cy3 exosite-II aptamer, 400 nM; direction: higher = stronger binding; sequence: GGTTGGTGTGGTTGG
# Target: Prothrombin, mature alpha-thrombin (F2, Homo sapiens, UniProt P00734)
# Notes: whole 15-mer aptamer, many near background
Modification,mean fluorescence intensity [a.u.]
2'F-ANA at 1 5 7 10 11 15,48.6
2'F-ANA at 5 6 8 11 13 15,56.5
2'F-ANA at 1 3 4 5 8 9 10 13,60.6
2'F-ANA at 1 3 4 6 8 9 10 11 14,50.1
2'F-ANA at 2 4 5 6 11 12 14 15,48.4
2'F-ANA at 1 2 3 4 8 13 14,69.5
2'F-ANA at 2 3 4 8 10 13 15,200
2'F-ANA at 1 2 3 4 5 6 7 8 9 11 12 15,91.5
2'F-ANA at 2 4 6 7 10 11 13 14 15,56.5
2'F-ANA at 1 2 3 4 5 8 9 10 12 13 15,54.2
2'F-ANA at 4 9 10 11 13 14 15,53.6
2'F-ANA at 3 4 5 7 9 10 12 13 14,50.3
2'F-ANA at 2 3 4 8 9 13 14,259
2'F-ANA at 2 5 6 8 10,46.5
2'F-ANA at 1 3 5 6 8 10 11 14 15,145
2'F-ANA at 2 3 4 5 6 7 8 12 13 14,72.4
2'F-ANA at 2 4 5 6 7 8 10 13,49.8
2'F-ANA at 1 3 4 6 10,109
2'F-ANA at 1 2 6 7 10 11 12 15,64.1
2'F-ANA at 1 2 4 5 6 8 9 11 12 14 15,57.8
2'F-ANA at 1 5 7 8 9 10 14 15,131
2'F-ANA at 1 2 14,51.5
2'F-ANA at 1 2 6 8 14 15,58.9
2'F-ANA at 3 5 6 7 8 9 12 14,63.3
2'F-ANA at 5 11 12,128

# Series 2 — technique: RNA Bind-n-Seq; form: RNA; medium: in vitro; concentration: 200 nM; notes: whole 134-nt RNA, ends assumed; with: 150 mM LiCl; reference: input library; direction: higher = stronger binding; each molecule: 7-deaza-guanosine replaces G
# Target: Fragile X messenger ribonucleoprotein 1, C-terminal low-complexity region (Fmr1, Mus musculus, UniProt P35922)
Sequence,log2 enrichment
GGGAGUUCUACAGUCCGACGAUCAAGUCCUGUGCUACACAUCGUAUGUACCGAAUCGGGAGGGUUUGGGAAAAAAAGGGAAAGUAUUAUGUUACGCCGUUCGGAUCUGCACUUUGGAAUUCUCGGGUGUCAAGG,-1.4
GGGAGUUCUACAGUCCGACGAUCACCAUGCAGGUGGGCAUCUUUGGGAAGUGGGGCAAGGGGGGGAUAGGGAGGGGGGUAACACUUUGGGAACAGGUGGUCCCGGGUCGUUUCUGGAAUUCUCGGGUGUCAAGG,1.2
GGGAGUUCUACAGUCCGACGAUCAAGUCCUGUGCUACACAUCGUAUGUACCGAAUCGGGCCCCGGGCCCCGGCCCCGGGGAAAGUAUUAUGUUACGCCGUUCGGAUCUGCACUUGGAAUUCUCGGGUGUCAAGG,-2.07
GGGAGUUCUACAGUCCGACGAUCUGGCCCUGGUGGCAUGCGGGGAGGAAGAGGUGGCCUCAUGGAUCGUGGUGGUCCCGGUGGAAUGUUCAGUGGUGGCCGUGGUGGAGACAGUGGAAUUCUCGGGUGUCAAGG,0.0262
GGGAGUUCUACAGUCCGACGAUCCCUCAAGUCCUGUGCUACACAUCGUAUGUACCGAAUCGGUUGGUUGGGGUUGGAAAGUAUUAUGUUACGCCGUUCGGAUCUGCACUUCCAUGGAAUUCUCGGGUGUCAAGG,-0.599
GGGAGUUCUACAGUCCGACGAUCACCAUGCAGGUGGGCAUCUUUGGGAAGUGGGGCAAGGGGGGGAUAGGGAGGGGGGUAACACUUUGGGAACCGGUGGUCCCAGGUCGUUUCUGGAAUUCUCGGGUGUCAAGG,1.32
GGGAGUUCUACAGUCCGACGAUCAAGUCCUGUGCUACACAUCGUAUGUACCGAAUCGGGUUUUGGGUUUUGGUUUUGGGGAAAGUAUUAUGUUACGCCGUUCGGAUCUGCACUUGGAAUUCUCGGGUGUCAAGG,-1.31
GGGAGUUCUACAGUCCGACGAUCCAAGUCCUGUGCUACACAUCGUAUGUACCGAAUCGGGCCCCGGCCCCGGCCCCGGGAAAGUAUUAUGUUACGCCGUUCGGAUCUGCACUUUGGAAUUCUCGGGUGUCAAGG,-1.37
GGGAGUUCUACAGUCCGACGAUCGUCCUGUGCUACACAUCGUAUGUACCGAAUCGGGAAAAAGGGUUUUUGGGAAAAAGGGAAAGUAUUAUGUUACGCCGUUCGGAUCUGCACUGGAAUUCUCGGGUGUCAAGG,-1.64
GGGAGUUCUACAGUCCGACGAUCGUCCUGUGCUACACAUCGUAUGUACCGAAUCGGGGAGGGGAAAGGGGAAAAAAAGGGGAAAGUAUUAUGUUACGCCGUUCGGAUCUGCACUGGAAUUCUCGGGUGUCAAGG,1.51
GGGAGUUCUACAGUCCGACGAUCUCAAGUCCUGUGCUACACAUCGUAUGUACCGAAUCGGGCCCGGCCCGGCCCGGGAAAGUAUUAUGUUACGCCGUUCGGAUCUGCACUUCCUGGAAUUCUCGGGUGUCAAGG,-1.59

# Series 3 — target: CCNA1, cyclin fold, Cln2 fusion (human); technique: yeast growth competition, sequencing; medium: yeast; notes: weak parent motif; reference: not given; direction: higher = stronger binding
# Starting sequence: CDKN1A docking peptide (human); SKACRRLFGPVDS
Change,normalised enrichment score
R5Y,-0.216
A3E,-0.0363
D12P,0.305
R5S,-0.0731
L7N,0.0615
P10D,0.689
K2W,-0.292
R6F,0.212
K2E,0.0735
V11F,0.206
D12F,0.384
P10K,0.341
F8R,0.163
R6L,-0.215
L7D,0.0765
P10M,0.12
K2N,0.666
L7P,0.182
D12R,0.142
D12G,0.616
F8T,-0.445
A3R,-0.251
G9V,0.742
F8N,-0.228
R6P,-0.0528

# Series 4 — technique: RNA Bind-n-Seq; form: RNA; medium: in vitro; concentration: 365 nM; reference: no-protein control; direction: higher = stronger binding
# Target: RNA binding protein fox-1 homolog 2, RRM domain, GST-SBP tag (RBFOX2, Homo sapiens, UniProt O43251-10, residues 100-194)
# Notes: natural RNA segment, single round, ends assumed
# Target sequence (chain): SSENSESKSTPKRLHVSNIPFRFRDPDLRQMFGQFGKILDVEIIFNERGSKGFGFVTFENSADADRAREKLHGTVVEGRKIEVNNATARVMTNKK
Sequence,RBNS enrichment (R)
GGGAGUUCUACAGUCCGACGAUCCCUCACAUAUCACAGCCCUUCUCUCCCAAAGGGACCUUUGCAGCUUCUAUUGGACCCAGAUACCCUUUACCUCUACAGCAUAGACACCAAAUGUCCCAUAGUCCUCUCACUGGAAUUCUCGGGUGCCAA,1.01
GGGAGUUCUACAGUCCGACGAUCUGUUUGAAGGAAAGAAUAUGGAUUUUUCAUGUCUUGAGGUUUUGUUCAUGCCCCCUUUGACUGAUCAGUGUGAUAAGGACUUUAGGAAAAAAAGCAUGUAUGUUUUUUACUGGAAUUCUCGGGUGCCAA,14.3
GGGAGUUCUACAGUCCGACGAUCUCUAUCUGUCCUGUUCUCUGUUAUCUCCAAGUCCUGAUUCUGUUGCCUCCAGCCCGAGCCUCCUCUCCUCUUCUCUCCCGAGACACAGCCUCACCCGUCAUUUCAUUCUCUGGAAUUCUCGGGUGCCAA,0.82
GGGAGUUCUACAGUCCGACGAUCUUCCCAACUGUUGGCUAGAUAAUCAUCUGAGGCUAUCAUUAUAGUGCUGAUGUCCAAGACUUAACCAGAAGGGAUCUGGGAGGGCCUAGAGGUGGGCUCAGAAUUCUAGUUGGAAUUCUCGGGUGCCAA,0.336
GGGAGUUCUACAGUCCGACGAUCAACCCCUGAGGAAGAUGGGGGCAAGAAGAUCACGCUCCCCGCCUGUUCCCCCGCCGCUUUUCUCCUCUUUCCUCUCUUUGUUCUCAGCUCCCCCUGUCCCCUCAGCUCCAUGGAAUUCUCGGGUGCCAA,1.11
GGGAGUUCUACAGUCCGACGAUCAGAGUAGGGAGCCAGGGGGUGCUACAAAAAUAGAAUUCUGUACCCCAGUAAUCAACUAGUUUUCUAUUAAUGUGCUUGUCUGUUCUAAGAGUAGGAUUAACACAGGGGAAUGGAAUUCUCGGGUGCCAA,0.46
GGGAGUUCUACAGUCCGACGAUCAUUCAAGCAUGCUGUUAGGAAUGUAAUUUCAAUGGGAAGUAAACCACUAUUAGGUUUUUUUUCUUUUCCUCUGUGGGGCUAAGACACUUGAUUAAACAGUUUUUCUUGUUUGGAAUUCUCGGGUGCCAA,16.4
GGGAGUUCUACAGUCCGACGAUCCUGAAGAUGCCGAACCCAUGGUCACUUAUAUAUUUUUUGUAAUUACUAUAUUCUAGUUUGGAGUACUUGCUGUAGGAUACAAGCUGUCUUUGCACUAGCUCUAAAGAAGAUGGAAUUCUCGGGUGCCAA,0.336
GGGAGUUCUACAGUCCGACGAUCCACAAAGCAGCCUGCGUGCAUUCUUUGAGGUGAGCAUUUAAUCACACACUUGAUGACAUUACAAAGCUAAACCAUGCCUCUUGGUAAAGCUGCUUGAUUACAAGUGCCAGUGGAAUUCUCGGGUGCCAA,0.433
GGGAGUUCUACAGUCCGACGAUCCAUUGUUUUGUGCUUUUGAAGAAGUUUUAUUUAUAUGCAUUAUUUUUAUUGUUUUUACUUUGACUGGAAUGUUUAUUGUGAACUGUAUUUAUUUUUAUACUUUGAUUUUCUGGAAUUCUCGGGUGCCAA,1.39
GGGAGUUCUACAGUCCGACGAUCGCUCUUCUUCCUUUCUUCCCCCCGUGUAUGUAAAUGAAUUCCUGAACCCCAUACUUCACCUAAUGGUAGGGGCUUGCUUGUUUUGCACAGGAUUAAUUAACAAGUUAAUUUGGAAUUCUCGGGUGCCAA,1.4
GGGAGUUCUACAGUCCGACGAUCGUUUUCAAACACAAUCUGAAAUCUGUUAGUAAAAUGAAUUCUGGGUAAAAAUGAGACUCAAGAGGCAUCACUGGCCAUUGUACCAGAUUAUUCCUGCUCGCCAGUGAGAGUGGAAUUCUCGGGUGCCAA,0.439

# A few entries again (series 3):
Change,normalised enrichment score
R6L,-0.215
L7D,0.0765
P10M,0.12
K2N,0.666
L7P,0.182
D12R,0.142
D12G,0.616
F8T,-0.445
A3R,-0.251
G9V,0.742
